Assay results from different studies.
Lines come from different studies, so protocols differ. ± marks the error that the study gave.
BCHE: Cholinesterase (BCHE, Equus caballus, UniProt P81908)
UniProt P81908, sequence (whole entry, looked up): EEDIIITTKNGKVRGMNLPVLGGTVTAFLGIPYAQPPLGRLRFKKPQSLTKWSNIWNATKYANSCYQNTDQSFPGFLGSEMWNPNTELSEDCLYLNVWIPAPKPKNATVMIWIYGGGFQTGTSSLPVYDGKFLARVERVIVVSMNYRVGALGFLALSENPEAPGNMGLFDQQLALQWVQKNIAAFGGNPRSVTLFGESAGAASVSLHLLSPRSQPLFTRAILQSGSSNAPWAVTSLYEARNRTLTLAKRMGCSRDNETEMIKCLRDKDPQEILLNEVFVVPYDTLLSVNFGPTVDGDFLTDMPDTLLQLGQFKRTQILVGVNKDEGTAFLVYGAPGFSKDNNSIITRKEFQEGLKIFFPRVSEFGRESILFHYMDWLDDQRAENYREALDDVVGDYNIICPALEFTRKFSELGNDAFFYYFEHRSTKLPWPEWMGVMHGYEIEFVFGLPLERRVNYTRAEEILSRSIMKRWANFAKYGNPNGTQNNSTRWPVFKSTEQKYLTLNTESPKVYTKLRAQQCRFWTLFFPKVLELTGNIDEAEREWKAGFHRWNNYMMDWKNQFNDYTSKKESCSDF
UniProt Q99ZW2, sequence (whole entry, looked up): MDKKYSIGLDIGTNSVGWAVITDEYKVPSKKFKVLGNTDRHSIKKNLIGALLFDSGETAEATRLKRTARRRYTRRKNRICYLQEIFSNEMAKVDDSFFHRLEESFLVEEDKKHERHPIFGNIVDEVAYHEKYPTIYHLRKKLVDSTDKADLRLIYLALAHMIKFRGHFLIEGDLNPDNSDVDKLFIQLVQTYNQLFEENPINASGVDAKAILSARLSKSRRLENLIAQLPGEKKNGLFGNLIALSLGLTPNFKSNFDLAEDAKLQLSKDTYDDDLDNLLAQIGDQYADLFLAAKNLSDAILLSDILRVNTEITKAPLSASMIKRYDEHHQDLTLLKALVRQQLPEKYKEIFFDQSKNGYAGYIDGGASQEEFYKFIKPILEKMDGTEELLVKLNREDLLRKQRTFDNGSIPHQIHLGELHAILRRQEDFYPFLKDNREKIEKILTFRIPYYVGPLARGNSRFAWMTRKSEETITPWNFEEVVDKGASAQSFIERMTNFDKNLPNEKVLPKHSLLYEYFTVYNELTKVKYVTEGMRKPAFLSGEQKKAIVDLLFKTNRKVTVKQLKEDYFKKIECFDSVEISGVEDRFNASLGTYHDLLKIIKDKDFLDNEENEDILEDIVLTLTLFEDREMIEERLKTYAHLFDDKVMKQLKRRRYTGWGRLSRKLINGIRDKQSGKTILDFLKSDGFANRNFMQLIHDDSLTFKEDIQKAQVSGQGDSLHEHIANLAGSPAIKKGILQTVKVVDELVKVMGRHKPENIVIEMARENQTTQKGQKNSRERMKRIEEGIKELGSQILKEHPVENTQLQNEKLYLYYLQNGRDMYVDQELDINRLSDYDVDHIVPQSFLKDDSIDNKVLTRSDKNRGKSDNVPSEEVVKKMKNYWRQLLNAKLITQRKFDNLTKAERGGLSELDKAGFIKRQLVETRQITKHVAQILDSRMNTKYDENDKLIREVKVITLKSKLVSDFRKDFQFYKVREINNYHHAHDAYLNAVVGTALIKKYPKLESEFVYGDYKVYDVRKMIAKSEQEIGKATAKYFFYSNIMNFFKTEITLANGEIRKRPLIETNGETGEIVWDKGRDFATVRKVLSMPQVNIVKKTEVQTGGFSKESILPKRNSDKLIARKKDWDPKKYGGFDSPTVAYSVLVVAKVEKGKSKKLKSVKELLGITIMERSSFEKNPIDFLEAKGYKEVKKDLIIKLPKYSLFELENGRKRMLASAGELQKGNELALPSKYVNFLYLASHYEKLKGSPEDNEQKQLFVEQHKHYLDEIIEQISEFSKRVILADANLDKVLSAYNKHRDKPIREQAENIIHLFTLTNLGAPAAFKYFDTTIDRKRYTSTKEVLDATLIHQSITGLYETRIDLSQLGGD
UniProt Q12809, sequence (whole entry, looked up): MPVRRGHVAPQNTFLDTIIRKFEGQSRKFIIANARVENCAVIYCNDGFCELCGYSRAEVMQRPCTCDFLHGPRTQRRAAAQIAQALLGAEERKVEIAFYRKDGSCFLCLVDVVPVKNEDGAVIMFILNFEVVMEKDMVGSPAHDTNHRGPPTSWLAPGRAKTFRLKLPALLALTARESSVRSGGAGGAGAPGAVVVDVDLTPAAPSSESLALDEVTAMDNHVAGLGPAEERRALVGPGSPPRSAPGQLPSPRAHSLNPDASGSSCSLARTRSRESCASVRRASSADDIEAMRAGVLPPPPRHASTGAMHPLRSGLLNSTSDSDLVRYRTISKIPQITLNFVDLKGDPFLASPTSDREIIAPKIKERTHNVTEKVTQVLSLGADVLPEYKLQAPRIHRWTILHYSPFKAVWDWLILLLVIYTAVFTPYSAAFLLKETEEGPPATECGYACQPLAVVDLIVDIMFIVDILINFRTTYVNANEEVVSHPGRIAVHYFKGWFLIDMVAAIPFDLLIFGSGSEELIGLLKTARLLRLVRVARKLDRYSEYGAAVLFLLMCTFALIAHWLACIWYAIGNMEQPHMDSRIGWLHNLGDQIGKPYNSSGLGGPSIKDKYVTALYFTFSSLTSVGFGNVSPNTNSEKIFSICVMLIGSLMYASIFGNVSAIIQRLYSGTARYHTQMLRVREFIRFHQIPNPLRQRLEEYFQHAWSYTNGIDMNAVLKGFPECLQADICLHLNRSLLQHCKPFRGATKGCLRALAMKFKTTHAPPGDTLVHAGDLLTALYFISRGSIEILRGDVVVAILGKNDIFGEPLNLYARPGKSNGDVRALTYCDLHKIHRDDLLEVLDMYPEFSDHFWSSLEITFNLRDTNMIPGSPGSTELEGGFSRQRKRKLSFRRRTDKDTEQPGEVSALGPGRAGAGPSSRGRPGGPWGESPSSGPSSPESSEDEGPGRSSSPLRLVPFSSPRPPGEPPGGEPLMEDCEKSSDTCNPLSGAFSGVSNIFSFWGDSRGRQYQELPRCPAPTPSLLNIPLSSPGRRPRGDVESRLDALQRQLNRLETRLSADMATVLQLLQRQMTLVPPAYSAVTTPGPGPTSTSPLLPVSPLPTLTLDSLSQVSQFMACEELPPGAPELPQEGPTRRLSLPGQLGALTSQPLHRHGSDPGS
UniProt Q9Y6L6, sequence (whole entry, looked up): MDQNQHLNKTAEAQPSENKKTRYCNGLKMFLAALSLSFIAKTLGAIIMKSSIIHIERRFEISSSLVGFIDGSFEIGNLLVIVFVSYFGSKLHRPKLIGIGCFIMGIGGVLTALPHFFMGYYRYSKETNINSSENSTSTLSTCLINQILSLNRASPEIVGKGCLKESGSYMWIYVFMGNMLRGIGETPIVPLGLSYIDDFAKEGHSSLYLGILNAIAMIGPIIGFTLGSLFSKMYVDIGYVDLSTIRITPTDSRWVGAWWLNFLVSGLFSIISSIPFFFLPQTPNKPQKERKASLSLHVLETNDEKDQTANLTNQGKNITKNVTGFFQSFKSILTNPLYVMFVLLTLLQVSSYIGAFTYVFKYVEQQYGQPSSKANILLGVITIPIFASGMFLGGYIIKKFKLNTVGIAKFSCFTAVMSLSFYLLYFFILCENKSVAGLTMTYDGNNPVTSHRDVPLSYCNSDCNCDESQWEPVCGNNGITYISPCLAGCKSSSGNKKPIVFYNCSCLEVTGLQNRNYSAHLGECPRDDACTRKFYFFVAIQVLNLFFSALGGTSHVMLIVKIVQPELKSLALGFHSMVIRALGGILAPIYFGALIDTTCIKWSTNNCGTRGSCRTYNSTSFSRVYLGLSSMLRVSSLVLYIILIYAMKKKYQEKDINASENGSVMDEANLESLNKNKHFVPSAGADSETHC
UniProt Q04609, sequence (whole entry, looked up): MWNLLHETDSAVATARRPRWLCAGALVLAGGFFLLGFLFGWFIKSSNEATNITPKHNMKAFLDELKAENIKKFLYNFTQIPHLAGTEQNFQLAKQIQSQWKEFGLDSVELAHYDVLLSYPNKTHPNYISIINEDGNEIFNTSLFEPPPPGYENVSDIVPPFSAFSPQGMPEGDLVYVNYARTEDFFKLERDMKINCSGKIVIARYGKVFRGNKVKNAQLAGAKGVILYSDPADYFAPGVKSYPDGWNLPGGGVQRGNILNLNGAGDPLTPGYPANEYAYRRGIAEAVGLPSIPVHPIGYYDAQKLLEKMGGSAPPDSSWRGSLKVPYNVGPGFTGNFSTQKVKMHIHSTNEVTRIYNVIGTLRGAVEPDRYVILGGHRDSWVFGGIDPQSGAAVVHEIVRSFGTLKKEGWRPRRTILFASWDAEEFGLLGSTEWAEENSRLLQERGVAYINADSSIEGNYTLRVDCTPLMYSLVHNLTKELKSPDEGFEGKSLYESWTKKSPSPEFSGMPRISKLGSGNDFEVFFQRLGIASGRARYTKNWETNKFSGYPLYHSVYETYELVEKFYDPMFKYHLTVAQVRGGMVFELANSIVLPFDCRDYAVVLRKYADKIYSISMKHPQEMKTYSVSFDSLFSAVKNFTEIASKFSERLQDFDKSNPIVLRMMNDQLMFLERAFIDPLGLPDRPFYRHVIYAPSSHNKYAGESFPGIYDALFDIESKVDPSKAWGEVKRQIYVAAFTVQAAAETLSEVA
UniProt Q16678, sequence (whole entry, looked up): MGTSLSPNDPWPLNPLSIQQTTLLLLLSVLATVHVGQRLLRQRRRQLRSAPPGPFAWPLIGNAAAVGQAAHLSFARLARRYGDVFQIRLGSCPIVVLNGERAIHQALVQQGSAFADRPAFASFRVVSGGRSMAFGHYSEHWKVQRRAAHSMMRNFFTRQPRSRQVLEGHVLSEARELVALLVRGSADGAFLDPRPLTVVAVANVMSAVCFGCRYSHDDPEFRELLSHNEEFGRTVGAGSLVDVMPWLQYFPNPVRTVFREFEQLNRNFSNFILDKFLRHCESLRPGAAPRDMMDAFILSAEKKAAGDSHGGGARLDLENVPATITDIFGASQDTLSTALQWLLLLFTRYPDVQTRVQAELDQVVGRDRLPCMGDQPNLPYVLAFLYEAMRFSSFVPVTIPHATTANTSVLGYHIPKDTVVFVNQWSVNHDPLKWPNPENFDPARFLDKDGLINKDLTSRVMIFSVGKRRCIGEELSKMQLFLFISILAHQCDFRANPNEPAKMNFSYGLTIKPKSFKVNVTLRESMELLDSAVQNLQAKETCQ

| SMILES | tested on | assay | system | setting | endpoint | result |
| --- | --- | --- | --- | --- | --- | --- |
| CC1(C)[C@@H](OC(=O)CCC(=O)O)CC[C@]2(C)[C@H]3C(=O)C=C4[C@@H]5C[C@@](C)(C(=O)O)CC[C@]5(C)CC[C@@]4(C)[C@]3(C)CC[C@@H]12 | CRISPR-associated endonuclease Cas9/Csn1 (cas9, Streptococcus pyogenes serotype M1, UniProt Q99ZW2) | DNA cleavage, inhibitor, in vitro cleavage | Streptococcus pyogenes | added: FAM-labelled PCSK9 DNA substrate | IC50 | ~5 µM |
| CN1C(=O)[C@]23SS[C@@]1(C)C(=O)N2[C@H]1Nc2ccccc2[C@@]1([C@@]12c4ccccc4N[C@@H]1N1C(=O)[C@@]4(C)SS[C@]1(C(=O)N4C)[C@H]2O)[C@@H]3O | Histone-lysine N-methyltransferase SUV39H2 (SUV39H2, Homo sapiens, UniProt Q9H5I1) | enzyme activity, inhibitor, radiometric | – | – | IC50 | 0.481 µM |
| Cc1ccc2cc3c(ccc4ccccc43)c3c2c1CC3 | Cytochrome P450 1B1 (CYP1B1, Homo sapiens, UniProt Q16678) | enzyme activity, inhibitor | – | 5 s, pH 7.4 | IC50 | < 0.05 µM |
| CN[C@@](C)(C[18F])C(=O)O | – | – | SCID mouse U87 xenograft, spleen | 15 min, post injection | tissue uptake | 16 ± 6.7 %ID/g |
| O=C(O)c1ccccc1-c1c2ccc(=O)c([As]3SCCS3)c-2oc2c([As]3SCCS3)c(O)ccc12 | Tyrosine-protein phosphatase non-receptor type 11 (PTPN11, Homo sapiens, UniProt Q06124) | enzyme activity, inhibitor | catalytic domain | 120 min preincubation, added: pNPP | IC50 | 0.053 µM |
| CCOC(=S)SSC(=S)OCC | Carbamate kinase (Giardia intestinalis, UniProt A8BB85) | enzyme activity, ATP luminescence | – | – | IC50 | 6.51 µM |
| CC1=C(C(=O)NC(=O)c2cnccn2)C(c2ccc(Cl)cc2)NC(=S)N1 (centres unmarked) | BCHE | – | – | – | IC50 | 4.13 ± 0.01 µM |
| CCC(CC)COC(=O)[C@H](C)N[P@](=O)(OC[C@H]1O[C@@](C#N)(c2ccc3c(N)ncnn23)[C@H](O)[C@@H]1O)Oc1ccccc1 | Solute carrier organic anion transporter family member 1B1 (SLCO1B1, Homo sapiens, UniProt Q9Y6L6) | transport, inhibitor | – | 10 (unit not given), pre-incubation, added: estrone-3-sulfate | IC50 | 36.1 ± 24.4 µM |
| CC(=O)Nc1ccc2ccn(-c3cc(NC4CCN(C)CC4)n4ncc(C#N)c4n3)c2c1 | Casein kinase II subunit alpha' (CSNK2A2, Homo sapiens, UniProt P19784) | target engagement in cells, BRET | – | – | IC50 | 0.2 µM |
| COc1ccc(NC(=O)N2CCCCN3[C@H](CO)[C@H](c4ccc(C#Cc5ccccc5)cc4)[C@]3(CO)C2)cc1 | Phenylalanine--tRNA ligase alpha subunit (Plasmodium falciparum, UniProt Q8I246) | aminoacylation activity, inhibitor | – | – | IC50 | 29.4 µM |
| C=C1C(=O)N[C@@H](C)C(=O)N(C)[C@@H](C)C(=O)N[C@@H]([C@H](OC(=O)[C@@H](NC(=O)CC)[C@H](O)C(C)C)C(C)C)C(=O)N(C)[C@@H]([C@@H](C)OC)C(=O)O[C@H](C(C)C)[C@H](NC(C)=O)C(=O)O[C@H](Cc2ccccc2)C(=O)N1C | Gnaq, with RGS2 (Mus musculus, UniProt P21279, Q209L) | RGS2–Gαq association, inhibitor, split-luciferase complementation | HEK293 | 18 h, constitutively active Gαq Q209L | IC50 | 0.0004 µM |
| CC1(C)CCC(=Cc2ccc(Cl)cc2)C1(O)Cn1cncn1 (centres unmarked) | Androgen receptor (AR, Homo sapiens, UniProt P10275) | reporter gene, antagonist | T47D-ARE | 24 h, added: testosterone 20 nM | IC50 | 10.7 µM |
| COc1ccc(CCN2CCN(c3ccccc3OC)CC2)cc1OC | Cytochrome P450 1A2 (CYP1A2, Homo sapiens, UniProt P05177) | enzyme activity, inhibitor | human, liver microsomes | – | IC50 | > 100 µM |
| CC(C)(C)OC(=O)[C@H](CCCCNC(=O)c1ccc(CNC(=N)N)c(I)c1)NC(=O)CCCCCCC(=O)NCCCC[C@H](NC(=O)N[C@@H](CCC(=O)O)C(=O)O)C(=O)O | Glutamate carboxypeptidase 2 (FOLH1, Homo sapiens, UniProt Q04609) | enzyme activity, inhibitor, fluorescence | – | lysate | IC50 | 0.00088 µM |
| O=C(NCCCCCn1ccc2ccc(F)cc21)Oc1cccc(C(=O)O)c1 | BCHE | enzyme activity, inhibitor, HPLC | – | – | IC50 | 5.8 µM |
| Nc1ccc2cc3ccccc3cc2c1 | Voltage-gated inwardly rectifying potassium channel KCNH2 (KCNH2, Homo sapiens, UniProt Q12809) | thallium influx, inhibitor, primary qHTS | hERG-transduced cells | two runs | IC50 | 6.5 ± 2.1 µM |
| C=C(NC(=O)C(=C)NC(=O)c1csc(C2=N[C@@H]3c4csc(n4)[C@H]4NC(=O)c5csc(n5)[C@H]([C@](C)(O)[C@@H](C)O)NC(=O)[C@H]5CSC(=N5)/C(=C/C)NC(=O)[C@H]([C@@H](C)O)NC(=O)c5csc(n5)[C@]3(CC2)NC(=O)[C@H](C)NC(=O)C(=C)NC(=O)[C@H](C)NC(=O)[C@H]([C@@H](C)CC)N[C@@H]2C=Cc3c([C@H](C)O)cc(nc3[C@H]2O)C(=O)O[C@@H]4C)n1)C(N)=O | Proteasome subunit beta type-6 (PSMB6, Homo sapiens, UniProt P28072) | caspase-like activity, inhibitor | purified human 20S proteasome | 37 °C, 15 min preincubation, added: Ac-Nle-Pro-Nle-Asp-AMC | IC50 | 0.59 ± 0.06 µM |

A few entries again:
| SMILES | tested on | assay | system | setting | endpoint | result |
| --- | --- | --- | --- | --- | --- | --- |
| CCOC(=S)SSC(=S)OCC | Carbamate kinase (Giardia intestinalis, UniProt A8BB85) | enzyme activity, ATP luminescence | – | – | IC50 | 6.51 µM |
| Nc1ccc2cc3ccccc3cc2c1 | Voltage-gated inwardly rectifying potassium channel KCNH2 (KCNH2, Homo sapiens, UniProt Q12809) | thallium influx, inhibitor, primary qHTS | hERG-transduced cells | two runs | IC50 | 6.5 ± 2.1 µM |
